Experimental data of several laboratories.
A part holds a random share of what one study measured. Values joined by “and” are separate records of one study, mostly repeats; a detail may differ.

Block 1
Target: Prothrombin, mature alpha-thrombin (F2, Homo sapiens, UniProt P00734)
Method: aptamer microarray, sandwich
Form: DNA with 2'F-ANA
Sample: in vitro
Concentration: 200 nM
Notes: whole 15-mer aptamer, many near background
Added: Cy3 exosite-II aptamer, 400 nM
Reading: higher = stronger binding
Sequence: GGTTGGTGTGGTTGG
Under “mean fluorescence intensity”, `2'F-ANA at 1 4 7 12 13 14` is recorded as 59.8 a.u.
`2'F-ANA at 1 2 3 4 6 8 11 12` — result for “mean fluorescence intensity”: 303 a.u.
For `2'F-ANA at 1 2 4 7 11 12 15`, “mean fluorescence intensity” read 229 a.u.
`2'F-ANA at 1 2 3 8 12 13 15` — result for “mean fluorescence intensity”: 415 a.u.
`2'F-ANA at 3 4 5 8 10`: “mean fluorescence intensity” 51.8 a.u.
For `2'F-ANA at 1 4 5 6 7 8 10 12 13 14`, “mean fluorescence intensity” read 48.5 a.u.
`2'F-ANA at 1 2 5 8 9 11 12 13` — result for “mean fluorescence intensity”: 70 a.u.
`2'F-ANA at 1 9 10 11` — result for “mean fluorescence intensity”: 52.4 a.u.

Block 2
Target: Sal-like protein 4, full length isoform A (SALL4, Homo sapiens, UniProt Q9UJQ4, residues 1-1053)
Chain of UniProt Q9UJQ4 (whole entry, looked up): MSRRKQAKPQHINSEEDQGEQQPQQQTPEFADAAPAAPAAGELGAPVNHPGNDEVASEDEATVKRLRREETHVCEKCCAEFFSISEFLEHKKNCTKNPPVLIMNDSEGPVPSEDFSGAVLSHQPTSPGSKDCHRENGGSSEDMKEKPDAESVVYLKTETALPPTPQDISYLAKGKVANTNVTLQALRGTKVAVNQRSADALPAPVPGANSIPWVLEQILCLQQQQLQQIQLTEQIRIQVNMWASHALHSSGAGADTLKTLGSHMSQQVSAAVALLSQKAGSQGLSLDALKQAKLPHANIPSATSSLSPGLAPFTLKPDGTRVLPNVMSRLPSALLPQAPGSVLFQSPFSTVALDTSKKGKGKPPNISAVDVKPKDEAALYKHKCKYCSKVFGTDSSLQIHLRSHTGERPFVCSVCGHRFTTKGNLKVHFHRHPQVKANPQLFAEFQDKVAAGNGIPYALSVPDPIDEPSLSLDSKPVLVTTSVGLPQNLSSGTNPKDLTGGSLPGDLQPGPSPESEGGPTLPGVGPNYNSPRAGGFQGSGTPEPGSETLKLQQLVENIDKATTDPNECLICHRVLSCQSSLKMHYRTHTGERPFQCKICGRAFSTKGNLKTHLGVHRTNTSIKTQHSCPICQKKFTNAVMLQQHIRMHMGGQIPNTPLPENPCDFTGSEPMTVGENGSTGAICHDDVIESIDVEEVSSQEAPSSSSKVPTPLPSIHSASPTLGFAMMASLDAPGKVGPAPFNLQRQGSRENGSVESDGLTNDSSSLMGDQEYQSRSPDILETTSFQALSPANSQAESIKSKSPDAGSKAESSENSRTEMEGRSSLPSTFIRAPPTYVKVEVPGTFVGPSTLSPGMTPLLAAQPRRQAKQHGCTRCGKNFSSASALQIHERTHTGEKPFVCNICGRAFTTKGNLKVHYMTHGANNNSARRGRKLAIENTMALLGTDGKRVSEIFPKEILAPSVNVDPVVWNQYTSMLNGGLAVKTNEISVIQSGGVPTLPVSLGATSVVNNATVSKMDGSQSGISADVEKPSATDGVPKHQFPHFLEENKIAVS
Method: universal PBM
Form: double-stranded DNA, one strand shown
Sample: in vitro
Concentration: 600 nM
Notes: 8-mer, flanks averaged, mean of replicates
Reading: higher = stronger binding
`GAATTAGC` gave an E-score of 0.0497.
For `ATGGTGCA`, the E-score was 0.00604.
`CCTTCAGC` gave an E-score of -0.271.
`GTATGGCA` has an E-score of 0.00338.
`CATTTCTC` has an E-score of 0.129.
`CCGGTTCG` gave an E-score of -0.31.
`ATTGTTTA` gave an E-score of 0.353.
`ATGACTTG` gave an E-score of 0.101.

Block 3
Target: RING finger protein unkempt homolog, zinc fingers 1-6, GST-SBP tag (UNK, Homo sapiens, UniProt Q9C0B0, residues 30-357)
Method: RNA Bind-n-Seq
Form: RNA
Sample: in vitro
Concentration: not given
Notes: RNA with constant flanks, human and mouse sites, ends assumed
Reference: input RNA pool
Reading: higher = stronger binding
Target sequence (chain): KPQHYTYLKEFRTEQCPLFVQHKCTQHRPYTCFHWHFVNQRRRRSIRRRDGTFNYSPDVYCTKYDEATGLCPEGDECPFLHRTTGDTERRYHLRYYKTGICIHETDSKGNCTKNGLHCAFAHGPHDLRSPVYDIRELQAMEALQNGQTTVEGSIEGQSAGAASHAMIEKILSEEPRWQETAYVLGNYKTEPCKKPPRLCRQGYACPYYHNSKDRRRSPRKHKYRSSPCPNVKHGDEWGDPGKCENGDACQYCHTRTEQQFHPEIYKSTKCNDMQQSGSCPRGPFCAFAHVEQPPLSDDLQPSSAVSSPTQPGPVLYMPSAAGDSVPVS
The bound/input enrichment of `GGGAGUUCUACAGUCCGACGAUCGCUAACCAGGCGUCCGCUACUUCAGAAGAGUGUACUGUCGCAUGGGGAGUCUGUAACCAUGCUUUUCACUUCCACUGCAUCUCUCGCUGGCUCAAAACACGACAGGUGUGUCCAUUGGACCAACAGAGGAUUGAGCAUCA` is reported as 0.0585 ratio.
For `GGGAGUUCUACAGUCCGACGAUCAGAGGUGCAAAGAAGACUGCAGAGAUGAAUGAAAAGCUCUCCAAGAUGGGCGAAAGUUCACUUAGAAACUUUACAAUGGAUACAGAGUCAAGUGUUUAUAACUUCGAAGGAGAAGACUAUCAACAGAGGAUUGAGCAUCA`, the bound/input enrichment was 0.599 ratio.
`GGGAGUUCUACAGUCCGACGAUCUCUCUGAUGCAAUGUGCAGGAGAAAGUAUCUCUCUGUUUAAAAAUAAAACAAAUGAGGAAUCAAGAAUUGGUUCAUUGAGAAAUGUGAUGCAUCUGUGUACAAGUUGCUUGUGUAUACAUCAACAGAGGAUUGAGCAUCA` has a bound/input enrichment of 0.221 ratio.
`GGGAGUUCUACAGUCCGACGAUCACUUGCAUAUCUGAAGAAAUGGCAUUCCGGACAAUUUGCGUGUUGGUUGGAGUAUUUAUUUGUUCUAUCUGUGUGAAAGGAUCUUCCCAGCCCCAAGCAAGAGUUUAUUUAACAUUUGAUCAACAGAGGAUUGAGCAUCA` gave a bound/input enrichment of 0.274 ratio.
`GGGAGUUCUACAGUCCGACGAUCACCUCAAACCAGAAAUACCUCAGAAUUUUCUACUUAUGUAAGGUUUAUUAUAUAUUUUGUUAGUUGUGUUGUCUUGUAGUAAGUAUAUUUUAAUGUAAGUUGGCUUUUGUGACAAGGAAGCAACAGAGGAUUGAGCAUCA` has a bound/input enrichment of 10.1 ratio.
The bound/input enrichment of `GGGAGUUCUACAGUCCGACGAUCGACGAACAAGGCGGCGGCGUGGGCACCAAGGACCACGGGGGCGGCGGCGGCGGUGGCAAAGACCAGCAGCAGCAGCAGCAGGAGGCACCUUUAGGCCCGGGUCCCAAGUUUUGCAAAGCCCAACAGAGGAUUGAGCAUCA` is reported as 0.129 ratio.
For `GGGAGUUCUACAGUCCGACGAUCUUGUUGGGAUCUAGGCUUCCUUACUUCUGGAGAAGUGGCCAUCCAACACCCACCUGUGCCAUAGAGGGACAGGGCCUCCACAGCUGCCUCUGCUGCUUGUCCUGUCCCCUCAUACCAGAGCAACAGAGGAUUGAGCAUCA`, the bound/input enrichment was 0.132 ratio.

Mixed results
The fold induction of `PhoQ, residues 284 288 289 292 302 303 SASVAL` is reported as 21.7 and 11.1 (PhoP, residues 12 14 15 18 19 LWHSL (Escherichia coli, UniProt P23836); Sort-seq, refers to: YFP reporter; E. coli; PhoQ-PhoP variant library, added: 10 µM Mg2+; reference: high Mg2+ state, higher = stronger signaling).
